Results pooled from the literature.
Parts stem from different laboratories: compare values within a part only. Substitutions count along the parent as printed.

Study 1 — technique: DHFR PCA, deep sequencing; matrix: yeast; together with: (+)-ABA 58 µM; reference: wild-type fitted maximum; reading: higher = stronger binding; measurement: relative binding score
Target: ABI1, truncated, D143A, DHFR fusion (Arabidopsis thaliana)
Setting: methotrexate growth selection, single substitutions
Starting sequence: PYL1, truncated, DHFR fusion (Arabidopsis thaliana); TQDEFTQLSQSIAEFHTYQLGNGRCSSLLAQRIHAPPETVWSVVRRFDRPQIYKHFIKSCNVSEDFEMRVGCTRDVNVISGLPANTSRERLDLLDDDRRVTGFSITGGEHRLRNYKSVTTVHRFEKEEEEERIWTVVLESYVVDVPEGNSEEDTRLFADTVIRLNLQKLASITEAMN
R24M: 86.3%
S104V: 34.4%
R98A: 77.5%
G23M: 73.3%
Q167R: 90.4%
A84M: 24.2%
V137S: 0.697%
E67Q: 87.9%
L169A: 4.52%
V121W: 3.62%
D159I: -6.53%
T119P: -7.5%
S42E: 94%
T106K: 57.6%
I172A: 59.8%
S171T: 84.4%
Q51S: 46.6%
R111I: 14.9%
V136W: 76.8%
N177D: 102%
I162P: 4.84%
F5N: 72.1%
S150T: 85.6%
L164N: 67.8%

Study 2 — technique: protein-binding microarray; molecule type: double-stranded DNA, one strand shown; matrix: in vitro; concentration: 940 nM top; setting: 60-bp whole probe; together with: salmon DNA 0.4 mg/ml; reference: random background probes; reading: higher = stronger binding; measurement: fitted relative affinity; all sequences stand within: GCCTAGCAC … GTCTTGATTCGCTTGACGCTGCTG
Target: Interferon regulatory factor 5, full length, phosphomimetic (IRF5, Homo sapiens, UniProt Q13568-2, residues 1-514, S451D/S453D/S456D/S462D)
TTAGGTCTCGGCTTCGGTTAGTGCTAG: 2.44 z-score
TTAGGTATCGACACTGGGTCAGTGCTA: 4.59 z-score
TTAGGACTCGGTCTCGGTTAGTGCTAG: 1.65 z-score
GACGATTTCGACTATCGGGACGTGCTA: 0.544 z-score
ATAGATCTCAGTATCGATTAGTGCTAG: 4.5 z-score
TTAGGTATCGACTATCGGTAAGTGCTA: 6.18 z-score
TTAGGTATCGGACAGGGTTAGTGCTAG: 3.52 z-score
TCAGGTATCCTACTGCTTTAGTGCTAG: 0.249 z-score
TTAGATTTCAGTGTCGATTAGTGCTAG: 0.889 z-score
GAAGGACTGCTACTGCTGACGTGCTAG: -0.836 z-score
GACGGACTGGACTTTCGCGACGTGCTA: -0.38 z-score
AACGGACTGCTTCTCCTGACGTGCTAG: -0.367 z-score
ATTTTTTTGCATTGCTTCTAGTGCTAG: 0.434 z-score
GACGAACTGGGGTATCGAGTCGTGCTA: 1.69 z-score
GACGGTTTCGGGTATTGGGACGTGCTA: 8.5 z-score
TTCGGTATCGACTTTCGGTTAGTGCTA: 6.81 z-score
TCACATATTTATCTGCAACTGTGCTAG: 0.434 z-score
TCATGTTTGGTTCTTATACTGTGCTAG: 1.24 z-score
TTAGGTCTCGGGCTGGGTTAGTGCTAG: 1.15 z-score

Study 3 — technique: universal PBM; molecule type: double-stranded DNA, one strand shown; matrix: in vitro; concentration: 600 nM; reading: higher = stronger binding; measurement: E-score
Target: Sal-like protein 4, full length isoform A (SALL4, Homo sapiens, UniProt Q9UJQ4, residues 1-1053)
Sequence of UniProt Q9UJQ4 (whole entry, looked up): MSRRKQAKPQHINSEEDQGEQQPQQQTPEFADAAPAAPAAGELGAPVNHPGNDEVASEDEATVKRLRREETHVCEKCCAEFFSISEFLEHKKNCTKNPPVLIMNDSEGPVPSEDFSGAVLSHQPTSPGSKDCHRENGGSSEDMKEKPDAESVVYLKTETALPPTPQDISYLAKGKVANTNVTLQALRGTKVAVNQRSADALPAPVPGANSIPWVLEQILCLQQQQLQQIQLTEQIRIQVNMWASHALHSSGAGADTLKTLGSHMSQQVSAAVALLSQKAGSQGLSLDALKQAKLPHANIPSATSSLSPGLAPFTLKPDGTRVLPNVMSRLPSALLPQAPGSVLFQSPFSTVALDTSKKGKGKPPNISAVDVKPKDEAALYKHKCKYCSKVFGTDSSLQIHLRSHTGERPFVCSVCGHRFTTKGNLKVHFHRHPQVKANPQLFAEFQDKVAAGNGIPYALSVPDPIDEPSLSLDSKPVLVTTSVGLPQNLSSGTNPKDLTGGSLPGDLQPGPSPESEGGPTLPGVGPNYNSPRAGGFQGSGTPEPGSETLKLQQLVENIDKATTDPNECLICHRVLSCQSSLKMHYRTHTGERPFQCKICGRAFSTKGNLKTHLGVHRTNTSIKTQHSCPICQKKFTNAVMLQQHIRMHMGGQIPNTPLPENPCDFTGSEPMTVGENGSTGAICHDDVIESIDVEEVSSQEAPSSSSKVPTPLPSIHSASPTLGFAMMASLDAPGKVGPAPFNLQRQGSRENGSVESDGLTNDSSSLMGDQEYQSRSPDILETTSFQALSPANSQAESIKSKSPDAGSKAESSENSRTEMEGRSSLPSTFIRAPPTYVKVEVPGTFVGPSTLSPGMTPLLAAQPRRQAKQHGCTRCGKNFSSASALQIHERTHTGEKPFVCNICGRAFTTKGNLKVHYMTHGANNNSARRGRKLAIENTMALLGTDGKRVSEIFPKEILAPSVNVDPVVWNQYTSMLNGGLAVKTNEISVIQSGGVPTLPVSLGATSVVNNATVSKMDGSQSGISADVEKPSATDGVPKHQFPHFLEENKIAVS
Setting: 8-mer, flanks averaged, mean of replicates
ACTTAAAC: 0.138
ACCTCCGG: -0.305
CCAATGGG: -0.334
CATGGCGC: -0.183
GCCCCTAC: -0.177
ATACTCAA: 0.207
AGCCAGAC: -0.23
AGGCTGGA: -0.166
CGAGCGAA: -0.135
TATTGAAA: 0.395
GGCCCAAA: -0.249
CCGTATCG: -0.262
ATCCTAGC: -0.024
ATACCCAC: 0.094
ACAGAGGA: -0.0422
AGCCAGCA: -0.224
GCTGAGTA: -0.0458
CCCAAAAA: 0.0373
AGCGAGTG: -0.178
GTGATTTA: 0.185
ACTCCATG: -0.112

Study 4 — target: CCNB3, cyclin fold, Cln2 fusion (human); technique: yeast growth competition, sequencing; matrix: yeast; setting: weak parent motif; reference: not given; reading: higher = stronger binding; measurement: normalised enrichment score
Starting sequence: RBL1 docking peptide (human); GSAKRRLFGEDPP
G1S: 0.356
D11V: 0.341
P12W: 0.481
E10D: 1.01
E10G: 0.201
P13M: 0.259
G9S: 1.09
A3W: 0.603
R6H: 0.3
F8M: -0.16
P13H: 1.08
G1H: 0.744
S2Q: 0.312
K4Y: 0.338
K4Q: 0.0132
D11K: 0.213
A3Q: 0.257
F8K: 0.461
R5P: 0.67
D11H: 0.298
R6A: 0.222

Repeated from above (study 1):
L164N: 67.8%
V137S: 0.697%
S104V: 34.4%
T106K: 57.6%
G23M: 73.3%
Q167R: 90.4%
S150T: 85.6%
I162P: 4.84%
